Published values gathered from unrelated publications.
Every numbered part comes from another study and shows a few of its results, in no order.

Series 1
Target: Histone acetyltransferase KAT6A, winged helix 2, GST fusion (KAT6A, Homo sapiens, UniProt Q92794, residues 85-181)
Method: protein binding microarray
Form: double-stranded DNA, one strand shown
Medium: in vitro
Concentration: not given
Notes: 8-mer, flanks averaged, mean of 2 arrays, mostly near background
Reference: not given
Reading: higher = stronger binding
Target sequence (chain): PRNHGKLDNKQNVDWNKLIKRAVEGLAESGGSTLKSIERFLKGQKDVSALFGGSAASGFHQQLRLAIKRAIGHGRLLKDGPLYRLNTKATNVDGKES
Strand	E-score
ATTAAAGG	0.14
GCTTCCAC	0.0497
GAACGGCA	0.138
AACTCATG	-0.0369
AAACCCCA	-0.149
CTTGTCCA	-0.0166
TATCAACA	-0.0381
CTCTACCC	-0.0608
AAAATGGC	0.00258
ACTGTCCT	-0.102
ACTACCGC	0.0522
GCGGTGCA	-0.00959
AGTGGATA	-0.0342
AGGGATAG	-0.171
CTGATTGC	0.0782
GCGCCTCC	0.0924
TGTAGTAA	0.0193
GTTCTATA	-0.112
AAGCCGGA	0.257

Series 2
Target: Sal-like protein 4, full length isoform A (SALL4, Homo sapiens, UniProt Q9UJQ4, residues 1-1053)
Sequence of UniProt Q9UJQ4 (whole entry, looked up): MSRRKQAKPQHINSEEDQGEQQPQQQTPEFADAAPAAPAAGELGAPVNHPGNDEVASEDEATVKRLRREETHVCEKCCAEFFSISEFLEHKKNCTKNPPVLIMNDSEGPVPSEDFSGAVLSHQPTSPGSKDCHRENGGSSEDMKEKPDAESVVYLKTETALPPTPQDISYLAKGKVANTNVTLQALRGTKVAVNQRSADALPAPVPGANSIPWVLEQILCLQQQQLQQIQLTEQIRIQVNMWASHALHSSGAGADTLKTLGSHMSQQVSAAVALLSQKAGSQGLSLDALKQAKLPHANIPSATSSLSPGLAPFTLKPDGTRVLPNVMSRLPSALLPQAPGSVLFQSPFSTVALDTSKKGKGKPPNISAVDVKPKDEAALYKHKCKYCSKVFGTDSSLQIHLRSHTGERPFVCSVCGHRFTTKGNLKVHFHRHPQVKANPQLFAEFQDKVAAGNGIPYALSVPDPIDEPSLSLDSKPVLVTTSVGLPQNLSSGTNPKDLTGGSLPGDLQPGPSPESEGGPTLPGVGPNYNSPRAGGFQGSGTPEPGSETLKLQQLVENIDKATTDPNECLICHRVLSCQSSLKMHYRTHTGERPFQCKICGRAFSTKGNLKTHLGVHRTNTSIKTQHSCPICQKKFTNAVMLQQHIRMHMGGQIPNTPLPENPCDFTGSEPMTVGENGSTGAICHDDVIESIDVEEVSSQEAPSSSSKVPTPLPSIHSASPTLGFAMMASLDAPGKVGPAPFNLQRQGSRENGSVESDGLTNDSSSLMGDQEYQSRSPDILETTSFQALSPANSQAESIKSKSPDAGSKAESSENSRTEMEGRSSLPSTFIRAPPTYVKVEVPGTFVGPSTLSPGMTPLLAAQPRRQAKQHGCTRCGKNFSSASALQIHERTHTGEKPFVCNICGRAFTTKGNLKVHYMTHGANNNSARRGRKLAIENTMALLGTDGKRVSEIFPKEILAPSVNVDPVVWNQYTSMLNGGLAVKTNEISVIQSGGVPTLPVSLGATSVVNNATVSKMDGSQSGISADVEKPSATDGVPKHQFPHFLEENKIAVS
Method: universal PBM
Form: double-stranded DNA, one strand shown
Medium: in vitro
Concentration: 600 nM
Notes: 8-mer, flanks averaged, mean of replicates
Reading: higher = stronger binding
Strand	E-score
CCTTCAGA	-0.048
GTCGACAA	-0.201
GCCTACCC	-0.31
AAGCGTGT	0.0393
AGCCGATA	-0.0748
ATAGACAA	0.219
CTGAAGTA	0.124
AAAGAGAC	-0.0047
AATTCGGG	0.00916
GCCCCAAA	-0.171
CTGTGAAC	-0.00634
CGAACACC	-0.283
GATCCTGA	-0.0637
CACCTCTA	0.00404
CTTTCAGA	0.115
AACTGGAT	0.0794
AGCTACAC	0.0599
GAAGGAGC	-0.198
CGCCTTTC	-0.0981
ACTCTACG	-0.114

Series 3
Target: Phosphate system positive regulatory protein PHO4, full length, GST-tagged (PHO4, Saccharomyces cerevisiae, UniProt P07270, residues 1-312)
Method: competition protein-binding microarray
Form: double-stranded DNA, one strand shown
Medium: in vitro
Concentration: 2 µM
Notes: whole 60-bp probe, lowest competitor level
Together with: Cbf1 competitor, 0.05 µM
Reading: higher = stronger binding
Shared flanks, not repeated: … GTCTTGATTCGCTTGACGCTGCTG
Construct (chain): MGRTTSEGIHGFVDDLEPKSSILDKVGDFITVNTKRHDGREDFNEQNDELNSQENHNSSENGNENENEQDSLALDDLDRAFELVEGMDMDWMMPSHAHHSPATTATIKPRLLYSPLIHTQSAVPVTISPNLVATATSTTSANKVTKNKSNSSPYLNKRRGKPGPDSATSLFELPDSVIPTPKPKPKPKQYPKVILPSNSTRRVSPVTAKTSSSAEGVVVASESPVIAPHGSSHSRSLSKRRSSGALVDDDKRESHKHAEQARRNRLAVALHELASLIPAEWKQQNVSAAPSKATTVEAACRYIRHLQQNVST
Strand	fluorescence intensity
CGGGGTTAAGTTTGTCACTTGACTTGCTTGCAGCAG	3010 a.u.
CATACCCAACCTTTTCACGTGTAGTAAGATATTTGT	15400 a.u.
GGTGGGCTATACTTCCGTGTGACGGATTTCACAAAG	5270 a.u.
GTTTTGAATTCCCATCACAAAGGTTGACGAGCCGGC	2500 a.u.
TGCGGTGTAACGGTCCCCGTGCGGAAGTCAACGGAA	8840 a.u.
AAAGCGGTAATTTGAGCGGTGGGTGCAGATATCTAT	3890 a.u.
AAAGGCTCAGATCTGCATGTGTTGTATAACACTGGC	7890 a.u.
CTTTCCCGATCTTGGCGTGTGGGTGTAGCACATTTG	7330 a.u.
TCCGAATACTGTATTAACAACGTAGAAGAACTGATG	4230 a.u.
CTGGGCCTCCAGCGCCACGTGCCGCCGCTGGCACTG	17700 a.u.
CTAACGAAGGTTTGACATGTGGGTGACAAGCCAAGT	12700 a.u.
CATACCCAACCTTGTCACTCCACTTAAGATATTTGT	3930 a.u.

Series 4
Target: RNA binding protein fox-1 homolog 2, RRM domain, GST-SBP tag (RBFOX2, Homo sapiens, UniProt O43251-10, residues 100-194)
Method: RNA Bind-n-Seq
Form: RNA
Medium: in vitro
Concentration: 365 nM
Notes: natural RNA segment, single round, ends assumed
Reference: no-protein control
Reading: higher = stronger binding
Shared flanks, not repeated: GGGAGUUCUACAGUCCGACGAUC … UGGAAUUCUCGGGUGCCAA
Strand	RBNS enrichment (R)
CUCAGAUGUGUAGACAUCCUCCGUAUAUUUACAUAACAUAUAGAGGUAAUAGAUAGGUGAUAUACAUGAUACAUUCUCAAGAGUUGCUUGACCGAAAGUUACAAGGACCC	0.521
CCUACAACAUUUUUUUAACCCCAAAAUUAUAGCCUGAAUGUUCGCUUUUAGUCUGGCCAGGGAUCUGACUCCUGAGUUGGUUGCCUCUCCCCUGCUCACUCCAGUCACAU	1
UGAUCUCAGGGAAGCCCAGCUCCAGGGCCAGAUGAGCAGAAGCUCUCGAUGGACAAUGAACGGCCUUGCUGGGGGCCGCCCUGUACCCUCUUUCACCUUUCCCUAAAGAC	0.573
UCCAGUUCCCCGUUUAGAACUCAUUAGCUGUGUGACUCUGGGUGAGUCCCUUAACCCCUCUGAGCCCGGGUCUCUUCAUUAGUUGAAAGGGAUAGUAAUACCUACUUGCA	1.45
AAACAGAUUCAGGCCAGCCCAGCCAGGCCAACAGCACCUCCCCGCUGGGAAGAGAAGAGGGCCCAGCCCAGAGCCACCUGGAUCUAUCCCUGCGGCCUCCACACCUGAAC	0.432
CAUACCUAUUAAAAAAAAAUGUGGAGUUGGAGGGCUAACAUAUUUAAUUAAAUAAAUAAAUAAAUCUGGGUCUGCAUCUCUUAUUAAAUAAAAAUAUAAAAAUAUGUACA	1.33
ACCCCAGGGGCUGGCUUUUUUAAAACUGGUUUUAUUUUAAUUUUUAUUAUAUUUUCAGUUUUUCCAUAAAGGAGCCAAUUCCAACUCUGUACCUGGUCUCUGCCCUUGCU	0.593
GAAGAUCUGUCGAUUCAUCUCCAAUCAUAUGCAUUGACAUACACAGCAAAGAAGAUAUAGGCAGUAAUAUCAACACUGCUAUAUCAUGUGUAGGACAUUUCUUAUCCAUU	0.418
AGGGGUUGAUGGUGGAUGAAAUUGAUUUCUGGCUGGUUACUAAGGUGCCUGCUAGCCAUUGUAUAAAAUUAAAACAUGAAGAAUAUUUGUUUUGAGCAUGGCUAGUGGAU	1.45
UGCACUUUGAAUAUGGAAGAGAAUUUGAGCAGACCCCCGCGGGACCAAGACUGAAAGAGGCAAGGUCUCCUUGCCUCGGCCCAGUGAUCAUGACAGGAAUGAACCCAAAC	0.774
UUUAUUUGGGGGCACUAAGUUUAGAUGAGAUGAAUUGCCUCAUAGGAAAUGGAAUUGGUCAGGAUAGAUGGUGUGAAACUGAUAAGAGGUUUUGGAUGUGAAAAAGAGUU	1.16
UUGAAUUAAAGAUACCGAUUAAAGAUUCUACCCUACAAAUCAUGUGUAUUUGUAUAUUUUAGGUUAAAAAGACUUUAUAUGUUUCAUUCACUUUCCCAUGAAACUGCUGA	0.55

Series 5
Target: Interferon regulatory factor 7, full length, phosphomimetic (IRF7, Homo sapiens, UniProt Q92985, residues 1-503, S471D/S472D/S475D/S476D/S477D/S483D/S484D/S487D)
Method: protein-binding microarray
Form: double-stranded DNA, one strand shown
Medium: in vitro
Concentration: 2200 nM top
Notes: 60-bp whole probe
Together with: salmon DNA 0.4 mg/ml
Reference: random background probes
Reading: higher = stronger binding
Shared flanks, not repeated: GCCTAGCAC … GTCTTGATTCGCTTGACGCTGCTG
Construct (chain): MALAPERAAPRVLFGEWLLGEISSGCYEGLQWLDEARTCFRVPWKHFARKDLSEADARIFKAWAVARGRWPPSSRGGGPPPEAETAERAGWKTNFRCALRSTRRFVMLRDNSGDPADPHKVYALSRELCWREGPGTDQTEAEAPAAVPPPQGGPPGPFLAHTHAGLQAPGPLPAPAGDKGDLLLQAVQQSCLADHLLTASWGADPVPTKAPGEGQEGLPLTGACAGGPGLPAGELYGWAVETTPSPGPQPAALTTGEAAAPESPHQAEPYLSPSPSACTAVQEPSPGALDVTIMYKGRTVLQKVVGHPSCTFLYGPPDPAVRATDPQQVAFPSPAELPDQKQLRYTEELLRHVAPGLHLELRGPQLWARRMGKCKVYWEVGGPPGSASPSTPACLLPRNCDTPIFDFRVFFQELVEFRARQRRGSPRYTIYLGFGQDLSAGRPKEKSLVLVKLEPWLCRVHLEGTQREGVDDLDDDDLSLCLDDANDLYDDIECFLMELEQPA
Strand	fitted relative affinity [z-score]
GACGATCTCAGACTGGAGATGTGCTAG	-0.214
GACGGTATCGGGACTGGGTACGTGCTA	-0.399
CTGGCTATTTTATATGCTATGGTGCTA	-0.104
AAGCCATTGGTCTTCACTTGGTGCTAG	0.141
TGGCCTCTAGGTTTTCTGAAGTGCTAG	-0.216
GACGGAATGGACTATCGGGACGTGCTA	-0.22
GACGGTATCTGGTATCGGGACGTGCTA	0.161
TTAGGACTGCTTTTCCTTGAGTGCTAG	0.622
TTAGGTTTCGGTATCGGCTAGTGCTAG	7.52
TTAGGTTTCCTTTTCCTATAGTGCTAG	5.41
GACGAACTGGGTTATCGAGACGTGCTA	0.0644
TTAGGCTTCGGTATCGGTTAGTGCTAG	0.424
TTAGAACTGAGACTAGATTAGTGCTAG	-1.06
GACGGTATCAGTTTCGGGACGTGCTAG	3.97
TTAGGTTTTGGACTGGGTTAGTGCTAG	0.444
TCACATTGCTGCCCTCAGACTGTGCTA	1.7
GTCTCTTGTTCTCTCTGGCCGTGCTAG	1.93
TCAGGTTTCCTACTGCTTTAGTGCTAG	2.14

A few entries again (series 1):
Strand	E-score
GCTTCCAC	0.0497
GAACGGCA	0.138
AACTCATG	-0.0369
AAACCCCA	-0.149
CTTGTCCA	-0.0166
TATCAACA	-0.0381
CTCTACCC	-0.0608
AAAATGGC	0.00258
ACTGTCCT	-0.102
ACTACCGC	0.0522
GCGGTGCA	-0.00959
AGTGGATA	-0.0342
AGGGATAG	-0.171
